Assay results collected from several papers.
A part holds a random share of what one study measured.
Sequence of UniProt Q08881 (whole entry, looked up): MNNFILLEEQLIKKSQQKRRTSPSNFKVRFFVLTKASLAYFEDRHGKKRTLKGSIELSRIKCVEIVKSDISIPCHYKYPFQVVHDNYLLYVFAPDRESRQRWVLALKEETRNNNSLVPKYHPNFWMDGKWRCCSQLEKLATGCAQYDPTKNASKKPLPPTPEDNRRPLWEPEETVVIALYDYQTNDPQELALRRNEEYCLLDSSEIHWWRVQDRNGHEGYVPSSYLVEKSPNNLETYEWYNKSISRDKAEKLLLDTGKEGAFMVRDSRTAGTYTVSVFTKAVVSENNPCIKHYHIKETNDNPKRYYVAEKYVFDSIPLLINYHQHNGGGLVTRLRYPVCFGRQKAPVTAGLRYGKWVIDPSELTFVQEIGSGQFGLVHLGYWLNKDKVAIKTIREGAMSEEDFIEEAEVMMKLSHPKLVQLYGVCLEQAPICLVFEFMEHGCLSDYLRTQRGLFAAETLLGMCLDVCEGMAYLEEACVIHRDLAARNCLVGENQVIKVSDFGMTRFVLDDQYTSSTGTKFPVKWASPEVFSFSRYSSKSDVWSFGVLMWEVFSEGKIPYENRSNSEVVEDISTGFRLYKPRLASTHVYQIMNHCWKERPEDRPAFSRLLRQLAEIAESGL

Study 1 — method: RNA Bind-n-Seq; molecule type: RNA; medium: in vitro; tested at: not given; reference: input RNA pool; direction: higher = stronger binding; endpoint: bound/input enrichment
Target: RING finger protein unkempt homolog, zinc fingers 1-6, GST-SBP tag (UNK, Homo sapiens, UniProt Q9C0B0, residues 30-357)
Setting: RNA with constant flanks, human-mouse chimeric sites, ends assumed
Constant ends, left off below: GGGAGUUCUACAGUCCGACGAUC … CAACAGAGGAUUGAGCAUCA
Residues (chain): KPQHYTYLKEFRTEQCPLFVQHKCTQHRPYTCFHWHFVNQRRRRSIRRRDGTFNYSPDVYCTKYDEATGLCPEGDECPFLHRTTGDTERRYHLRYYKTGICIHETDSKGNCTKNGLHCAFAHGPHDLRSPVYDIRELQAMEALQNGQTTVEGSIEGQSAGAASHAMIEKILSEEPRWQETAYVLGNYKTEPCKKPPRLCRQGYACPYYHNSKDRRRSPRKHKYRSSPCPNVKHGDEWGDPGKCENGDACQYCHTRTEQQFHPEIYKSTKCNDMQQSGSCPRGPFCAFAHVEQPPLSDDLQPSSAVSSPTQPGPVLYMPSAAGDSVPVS
ACACAAUAUGAGACCAACAGCAUGGACUUCAAAGUUGGGGCAGAUGGGACAGUCUUCGCCACUAGGGAGCUGCAGGUCCCCUCCGAGCAGGUGGCGUUUACCGUCACUGCAUGGGACAGC: 0.178 ratio
UAAAUUAGGGCUGCCGUUUUCUGUUUCUCCCUGGGCUGCGGAAAGCCAGAAGAUUUUAUCUAGUUUGUACAAGGCUGCUGGUGUUCCCUCUUUUUUUCCACGAGGGUUUUUUUUCCAGCA: 1.58 ratio
AGAAUCUGUGACUGGCUUUACUUAAUUGGUCAUUGGUAGCUUAACAAACAUGGAGAUAAGAUUAGAAAUCUUGACAUCAACAGGUAUUAAGCAGAAAAAACCAUGGCCACGUGUCUCCUG: 0.114 ratio
GUUGCCAGCUUCCGGUUGGCCUCCAUCCGGUUCUCUCCUGAGCUACGUGUCUCUACGCUCUCAAUCCGCCAUCCAACGGCAGUCAUGCAGGUAAUGCAGUUUGUGGAGCCCAGCCGGCAG: 0.0799 ratio
AGCACAACCCCAGCAAAGCUAAGAAAUCCUUGUACAAGUGAACAAAACUGCACCAGCCCAUUUAGCUACAAAAAUGUGCUUAGUCUUACUGACAGAGGAGAAGUAUUUAAUGAACUUGUU: 0.487 ratio
AGUUCCAAACCACCAUCAGAAAUGAAGAUGAGAUUACCCAGACGAGCCAAAACAGCUGCGCUACAGAAAAGUAAACUUAACCUUGCAGAGUUCCUUAAUGAAGAUACAAGUUAAGAGAGC: 0.408 ratio
UACUCAACUUUCUUGCCACAUUUUGAAUUCCAAGACAUUAUUCCUCCAGAUGACUUUCUAACGAGUGAUGAAGAGCAAGAUUUGGUUUUAUUUGGAACUAUGAGAGGUCAUGUGGUUGGA: 0.241 ratio
UGUGCAUUAUGAUGCUUAGAUGGUUUUUGCAAAAGCAGAAAUCGCUGCAAGGUAAUCACAAUAGAUAAAAGUGGUAUUUUAAACCUUUGAAAGGAAUGGAUGUAACUGUACCUUGGUACA: 0.317 ratio

Study 2 — method: protein-binding microarray; molecule type: double-stranded DNA, one strand shown; medium: in vitro; tested at: 2200 nM top; setting: 60-bp whole probe; added: salmon DNA 0.4 mg/ml; reference: random background probes; direction: higher = stronger binding; endpoint: fitted relative affinity; constant ends, left off below: GCCTAGCAC … GTCTTGATTCGCTTGACGCTGCTG
Target: Interferon regulatory factor 7, full length, phosphomimetic (IRF7, Homo sapiens, UniProt Q92985, residues 1-503, S471D/S472D/S475D/S476D/S477D/S483D/S484D/S487D)
Sequence of UniProt Q92985 (whole entry, unmodified, looked up): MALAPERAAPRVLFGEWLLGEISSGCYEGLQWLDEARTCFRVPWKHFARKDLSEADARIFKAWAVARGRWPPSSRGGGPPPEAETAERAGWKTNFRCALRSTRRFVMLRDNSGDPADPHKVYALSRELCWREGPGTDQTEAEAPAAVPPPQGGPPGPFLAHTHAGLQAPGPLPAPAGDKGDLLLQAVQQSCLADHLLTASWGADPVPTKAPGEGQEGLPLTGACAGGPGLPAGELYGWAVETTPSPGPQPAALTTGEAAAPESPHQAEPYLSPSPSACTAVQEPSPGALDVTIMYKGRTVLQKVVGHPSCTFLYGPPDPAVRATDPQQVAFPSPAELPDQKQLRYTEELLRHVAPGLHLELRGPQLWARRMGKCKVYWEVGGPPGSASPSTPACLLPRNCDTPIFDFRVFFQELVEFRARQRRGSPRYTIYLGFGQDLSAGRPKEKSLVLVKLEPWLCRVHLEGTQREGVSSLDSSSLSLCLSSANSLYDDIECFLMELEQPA
TCATTTATGTCCTGTCTAACTGTGCTA: 1.77 z-score
TCAAACATCTACAATGGCACTGTGCTA: -0.435 z-score
GACGGTTTTCTTTTCCTGACGTGCTAG: 4.39 z-score
GACGGTATCGGTATCTGGACGTGCTAG: 0.716 z-score
TCATATATTATATATACAACTGTGCTA: 0.513 z-score
TATTTTTACATTATTACCTCGTGCTAG: 1.85 z-score
GACGGTTTCGGGTTTCGAGACGTGCTA: 8.99 z-score
TTAGGACTGCTTCTTCTTTAGTGCTAG: 0.433 z-score

Study 3 — method: protein binding microarray; molecule type: double-stranded DNA, one strand shown; medium: in vitro; tested at: not given; reference: not given; direction: higher = stronger binding; endpoint: E-score
Target: Histone acetyltransferase KAT6A, both winged helices, GST fusion (KAT6A, Homo sapiens, UniProt Q92794, residues 1-181)
Setting: 8-mer, flanks averaged, mean of 2 arrays, mostly near background
Target sequence (chain): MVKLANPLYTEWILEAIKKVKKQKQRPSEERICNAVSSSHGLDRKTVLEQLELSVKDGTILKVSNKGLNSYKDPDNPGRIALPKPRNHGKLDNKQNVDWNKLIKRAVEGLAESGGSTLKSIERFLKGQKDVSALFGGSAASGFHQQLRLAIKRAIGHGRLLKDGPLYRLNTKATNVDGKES
AACACAGT: -0.152
CCTCATTA: -0.13
ACTGTTGA: -0.0781
TAGAAAAA: -0.0226
CCCGCAAA: 0.139
CGAGCACA: -0.0987
CGTTAGAG: 0.00474
GGCATTAC: 0.06

Further values, each from its own experiment
NC(=O)c1cccc(-c2cc(Nc3ccc(OC(F)(F)F)cc3)ncn2)c1 — remaining activity (Tyrosine-protein kinase ITK/TSK (ITK, Homo sapiens, UniProt Q08881); enzyme activity, inhibitor; 0.5 µM; reference: control): 95.3%
